Published values collected from several papers.
Every numbered part comes from another study and shows a few of its results, in no order.

Series 1
Target: Sal-like protein 4, full length isoform A (SALL4, Homo sapiens, UniProt Q9UJQ4, residues 1-1053)
Chain of UniProt Q9UJQ4 (whole entry, looked up): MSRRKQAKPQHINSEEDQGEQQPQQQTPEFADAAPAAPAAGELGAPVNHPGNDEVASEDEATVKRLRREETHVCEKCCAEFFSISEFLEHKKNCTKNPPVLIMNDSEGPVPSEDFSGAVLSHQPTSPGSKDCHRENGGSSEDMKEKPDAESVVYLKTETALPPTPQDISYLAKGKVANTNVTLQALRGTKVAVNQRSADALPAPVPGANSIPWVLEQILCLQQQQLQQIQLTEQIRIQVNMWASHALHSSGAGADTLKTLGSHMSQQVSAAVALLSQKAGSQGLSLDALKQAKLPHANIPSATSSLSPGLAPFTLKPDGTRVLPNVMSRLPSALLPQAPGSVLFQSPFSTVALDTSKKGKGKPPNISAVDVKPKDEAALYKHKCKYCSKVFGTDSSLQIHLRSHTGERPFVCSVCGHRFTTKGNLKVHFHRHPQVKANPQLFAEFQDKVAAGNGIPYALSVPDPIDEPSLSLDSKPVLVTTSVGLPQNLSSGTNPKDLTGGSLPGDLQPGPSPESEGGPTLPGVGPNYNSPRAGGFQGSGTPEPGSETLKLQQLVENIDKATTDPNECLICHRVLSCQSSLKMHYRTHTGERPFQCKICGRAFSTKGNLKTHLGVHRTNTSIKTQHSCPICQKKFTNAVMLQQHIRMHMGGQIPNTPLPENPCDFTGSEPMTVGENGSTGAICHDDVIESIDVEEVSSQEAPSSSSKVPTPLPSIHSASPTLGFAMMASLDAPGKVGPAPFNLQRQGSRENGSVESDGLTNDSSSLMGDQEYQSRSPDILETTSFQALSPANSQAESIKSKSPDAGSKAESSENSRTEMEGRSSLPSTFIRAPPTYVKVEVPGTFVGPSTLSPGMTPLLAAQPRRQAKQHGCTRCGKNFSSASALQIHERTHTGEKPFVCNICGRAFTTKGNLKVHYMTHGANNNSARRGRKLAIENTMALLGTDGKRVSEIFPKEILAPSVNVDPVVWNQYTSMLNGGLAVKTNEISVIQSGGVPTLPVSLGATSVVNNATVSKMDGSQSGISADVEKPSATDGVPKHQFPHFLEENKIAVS
Method: universal PBM
Molecule type: double-stranded DNA, one strand shown
Matrix: in vitro
Tested at: 600 nM
Notes: 8-mer, flanks averaged, mean of replicates
Reading: higher = stronger binding
Measurement: E-score
AAATCGGG: 0.139
CGCAAACA: 0.0707
TGTAGAAA: 0.145
AAGCAGGA: -0.0166
AATGGGGT: -0.0251

Series 2
Target: POU, POU domain (Salpingoeca helianthica)
Method: Spec-seq
Molecule type: double-stranded DNA, one strand shown
Matrix: in vitro
Tested at: not given
Notes: whole probe, mean of replicates
Baseline: not given
Reading: lower = stronger binding
Measurement: relative binding energy
Target sequence (chain): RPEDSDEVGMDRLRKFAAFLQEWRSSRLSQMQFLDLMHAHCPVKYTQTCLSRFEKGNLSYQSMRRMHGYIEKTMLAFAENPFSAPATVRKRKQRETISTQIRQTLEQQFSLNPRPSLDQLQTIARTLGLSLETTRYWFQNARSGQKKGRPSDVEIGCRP
GAGTCGTCTCGTCAGCACTCTATAATCCGTAGAGCACTCAGGTC: 0.371 ln ratio
GAGTCGTCTCGTCAGCACGTTCTAATCCGTAGAGCACTCAGGTC: 0.709 ln ratio
GAGTCGTCTCGTCAGCACAACCTAATCCGTAGAGCACTCAGGTC: 0.593 ln ratio
GAGTCGTCTCGTCAGCACTACATAATCCGTAGAGCACTCAGGTC: 0.145 ln ratio

Series 3
Target: RNA binding protein fox-1 homolog 2, RRM domain, GST-SBP tag (RBFOX2, Homo sapiens, UniProt O43251-10, residues 100-194)
Method: RNA Bind-n-Seq
Molecule type: RNA
Matrix: in vitro
Tested at: 365 nM
Notes: natural RNA segment, single round, ends assumed
Baseline: no-protein control
Reading: higher = stronger binding
Measurement: RBNS enrichment (R)
Constant ends, left off below: GGGAGUUCUACAGUCCGACGAUC … UGGAAUUCUCGGGUGCCAA
Construct (chain): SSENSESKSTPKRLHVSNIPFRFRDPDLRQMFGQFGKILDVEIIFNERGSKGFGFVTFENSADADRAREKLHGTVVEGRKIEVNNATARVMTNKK
ACACUGCUGAACCUUUCCUCUGGGACCCCCUGUGGCCCUCGCUCUGCCUCCUGUCCUUGUCGCUGUGCCCUGGUUUCCCUCCUCGGGCUUCUCGCCCCUCAGUGGUUUCC: 0.295
GACUGAUGGCCUCGCUCUCUGACUUCCGUGUUCAGAACCAUGUUCCAGCCUCAGGGCCACCUCAGCCUCCAGCAGCGAGCCCCACCCGUGAAGGAUGCCCAUCUCCACCA: 0.421
GUCCCCUUUUCAAUGAACCAUCAUGACUGUCCCAGUGUCGGAUGCAAGGGUGCCACGGGCUCUGAAGCUAACGGGCAUCCCACGCGGUCAGGUGUAGUAGUGAACUUGAA: 0.551
UUCCAGACCCAGAGUUUCGACCGCUUGGAUAAUUGAGCCAAGAAGCAAUCCCACAACUGCCUUCUCAAACACCAAAAGCAACAUCUUUUUUAAAACUUCCUAUAAUUCUC: 1.06
UUGAAGAAAAGCUUUCAGAGGGCAUGUAUAGGAAGUGAUUUUGGGGAAGUCGUUUUUUGUUUGUUUUUUGUUUUGUUUUGUUUUGUUUUGUUUUUUUGUUUGUGAACUAG: 8.6

Further values, each from its own experiment
PhoQ, residues 284 288 289 292 302 303 ASSHFY  fold induction (PhoP, residues 12 14 15 18 19 SYFRT (Escherichia coli, UniProt P23836); Sort-seq, item: YFP reporter; E. coli; PhoQ-PhoP variant library, added: 10 µM Mg2+; baseline: high Mg2+ state, higher = stronger signaling): 1.07

Some of these lines once more (series 1):
CGCAAACA: 0.0707
